Measurements from different studies.
Parts stem from different laboratories: compare values within a part only. Changes are numbered by the printed parent chain.

Block 1
Target: RNA binding protein fox-1 homolog 2, RRM domain, GST-SBP tag (RBFOX2, Homo sapiens, UniProt O43251-10, residues 100-194)
Technique: RNA Bind-n-Seq
Form: RNA
Matrix: in vitro
Tested at: 365 nM
Setting: natural RNA segment, single round, ends assumed
Relative to: no-protein control
Direction: higher = stronger binding
Residues (chain): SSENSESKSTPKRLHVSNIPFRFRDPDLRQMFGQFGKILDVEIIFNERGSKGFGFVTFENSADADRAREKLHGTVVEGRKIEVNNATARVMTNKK
| Strand | RBNS enrichment (R) |
| --- | --- |
| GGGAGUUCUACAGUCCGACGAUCACCCUGUACACACCUAGUUCAUAAUCCUCAUAAUUUAUCAACAAACACAAAAAAGUGUCUUACUUGAGAGUGAGUGUGUGUGUGUGCGUGUGCACGUGCACACAUGUGCAUGGAAUUCUCGGGUGCCAA | 3.35 |
| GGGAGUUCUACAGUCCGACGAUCAGUUGAUGAAGGAGUUUUUUUUAACCUGUUUAUAUAAUUUUGCAGCAGAAGCCAAAUUUUUUGUAUAUUAAAGCACCAAAUUCAUGUACAGCAUGCAUCACGGAUCAAUAUGGAAUUCUCGGGUGCCAA | 3.05 |
| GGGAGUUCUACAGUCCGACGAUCUCCUGAGAGGGGAGGCCUGGUGGCUUAGCCUGGGCAGGUCGUGUCUCCUCCUGACCCCAGUGGCUGCGGUGAGGGGAACCACCCUCCCUUGCUGCACCAGUGGCCAUUAGUGGAAUUCUCGGGUGCCAA | 0.277 |
| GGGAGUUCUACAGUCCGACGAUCAAGGAUGUAGCUGCUGCUUGUCCUGUUCAAGUUGCUGGAGCAGGGGUCAUGUGAGGCCAGGCCUGUAGCUCCUACCUGGGGCCUAUUUCUACUUUCAUUUUGUAUUUCUGUGGAAUUCUCGGGUGCCAA | 0.701 |
| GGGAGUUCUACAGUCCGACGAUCUGACUUGCACAAUUCUUUGGGAAGAAACUGCACACCCAUAGGACAGUCGAUAAGGCUGAGUCGGGGAGGCUCAGACCAUUGAGGCUUGAAAUUGCAAAACUCUUGUAGCUUGGAAUUCUCGGGUGCCAA | 0.444 |

Block 2
Target: CCNB1, cyclin fold, Cln2 fusion (human)
Technique: yeast growth competition, sequencing
Matrix: yeast
Setting: weak parent motif
Relative to: not given
Direction: higher = stronger binding
Starting sequence: SCAPER docking peptide (human); SNARRSLNFGGST
| Change | normalised enrichment score |
| --- | --- |
| SNARRSDNFGGST [L7D] | 0.687 |
| SNHRRSLNFGGST [A3H] | 0.384 |
| SLARRSLNFGGST [N2L] | 0.697 |

Block 3
Target: PABPC1L2, full length, GST fusion (mouse, UniProt A0ABA7IW68)
Technique: RNAcompete
Form: RNA
Matrix: in vitro
Tested at: 20 nM
Setting: 7-mer, probes averaged, single round
Relative to: mean of 7-mers
Direction: higher = stronger binding
Residues (chain): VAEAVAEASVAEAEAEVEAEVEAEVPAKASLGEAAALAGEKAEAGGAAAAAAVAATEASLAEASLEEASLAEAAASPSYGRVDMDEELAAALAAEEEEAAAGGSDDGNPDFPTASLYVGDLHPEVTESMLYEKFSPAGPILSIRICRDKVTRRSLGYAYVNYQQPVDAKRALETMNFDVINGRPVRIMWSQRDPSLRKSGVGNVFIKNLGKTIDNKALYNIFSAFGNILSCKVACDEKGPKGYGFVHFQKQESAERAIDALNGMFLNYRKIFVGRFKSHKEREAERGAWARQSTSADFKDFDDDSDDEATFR
| Strand | 7-mer Z-score |
| --- | --- |
| AGUGCCG | -0.202 |
| UGGUGUC | -0.204 |
| CCUGACG | -0.15 |
| CUUUGGG | -0.277 |

Single results of other studies
| Molecule | target | test | system | setting | scale | endpoint | value |
| --- | --- | --- | --- | --- | --- | --- | --- |
| PhoQ, residues 284 288 289 292 302 303 GTAMQF | PhoP, residues 12 14 15 18 19 GQAIL (Escherichia coli, UniProt P23836) | Sort-seq, refers to: YFP reporter | E. coli | PhoQ-PhoP variant library, together with: 10 µM Mg2+ | relative to: high Mg2+ state, higher = stronger signaling | fold induction | 10.8 |

A few entries again (block 1):
| Strand | RBNS enrichment (R) |
| --- | --- |
| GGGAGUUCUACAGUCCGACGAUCAGUUGAUGAAGGAGUUUUUUUUAACCUGUUUAUAUAAUUUUGCAGCAGAAGCCAAAUUUUUUGUAUAUUAAAGCACCAAAUUCAUGUACAGCAUGCAUCACGGAUCAAUAUGGAAUUCUCGGGUGCCAA | 3.05 |
| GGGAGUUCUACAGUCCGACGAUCUCCUGAGAGGGGAGGCCUGGUGGCUUAGCCUGGGCAGGUCGUGUCUCCUCCUGACCCCAGUGGCUGCGGUGAGGGGAACCACCCUCCCUUGCUGCACCAGUGGCCAUUAGUGGAAUUCUCGGGUGCCAA | 0.277 |
